Results collected from several papers.
Lines come from different studies, so protocols differ. ± marks the error that the study gave.
Eif4e: Eukaryotic translation initiation factor 4E (Eif4e, Mus musculus, UniProt P63073)
Sequence of UniProt P63073 (whole entry, looked up): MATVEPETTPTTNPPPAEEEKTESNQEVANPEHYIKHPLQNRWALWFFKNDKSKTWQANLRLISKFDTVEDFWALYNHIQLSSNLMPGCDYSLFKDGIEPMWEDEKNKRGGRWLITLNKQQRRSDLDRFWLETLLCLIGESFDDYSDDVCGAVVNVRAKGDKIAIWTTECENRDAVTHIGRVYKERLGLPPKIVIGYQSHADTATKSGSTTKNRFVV
POLB I260M: DNA polymerase beta (POLB, Homo sapiens, UniProt P06746, I260M)
Sequence of UniProt P53341 (whole entry, looked up): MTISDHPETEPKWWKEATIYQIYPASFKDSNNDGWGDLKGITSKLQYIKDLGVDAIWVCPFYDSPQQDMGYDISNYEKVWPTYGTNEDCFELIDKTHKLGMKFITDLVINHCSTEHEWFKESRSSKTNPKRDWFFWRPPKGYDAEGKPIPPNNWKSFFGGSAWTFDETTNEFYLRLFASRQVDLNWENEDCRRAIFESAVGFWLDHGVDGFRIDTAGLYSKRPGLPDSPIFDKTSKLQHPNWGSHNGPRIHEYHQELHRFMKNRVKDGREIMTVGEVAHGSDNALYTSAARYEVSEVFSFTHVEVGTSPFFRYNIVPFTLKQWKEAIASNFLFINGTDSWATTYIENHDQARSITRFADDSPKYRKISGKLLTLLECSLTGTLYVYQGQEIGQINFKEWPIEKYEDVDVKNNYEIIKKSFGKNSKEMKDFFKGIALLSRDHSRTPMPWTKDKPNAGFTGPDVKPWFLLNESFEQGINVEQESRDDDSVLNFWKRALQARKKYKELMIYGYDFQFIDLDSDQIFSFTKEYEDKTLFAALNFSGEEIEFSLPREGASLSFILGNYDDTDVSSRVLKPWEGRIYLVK
Sequence of UniProt O00214 (whole entry, looked up): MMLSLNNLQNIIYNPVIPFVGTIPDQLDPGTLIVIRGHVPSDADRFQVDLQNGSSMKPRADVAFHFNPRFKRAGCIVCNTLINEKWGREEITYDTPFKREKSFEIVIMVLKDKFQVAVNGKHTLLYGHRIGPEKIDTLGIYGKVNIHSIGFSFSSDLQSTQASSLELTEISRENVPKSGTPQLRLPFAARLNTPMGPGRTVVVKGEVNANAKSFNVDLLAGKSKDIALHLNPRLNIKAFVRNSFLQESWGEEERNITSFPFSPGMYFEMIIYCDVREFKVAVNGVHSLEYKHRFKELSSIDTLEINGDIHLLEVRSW
Sequence of UniProt P54646 (whole entry, looked up): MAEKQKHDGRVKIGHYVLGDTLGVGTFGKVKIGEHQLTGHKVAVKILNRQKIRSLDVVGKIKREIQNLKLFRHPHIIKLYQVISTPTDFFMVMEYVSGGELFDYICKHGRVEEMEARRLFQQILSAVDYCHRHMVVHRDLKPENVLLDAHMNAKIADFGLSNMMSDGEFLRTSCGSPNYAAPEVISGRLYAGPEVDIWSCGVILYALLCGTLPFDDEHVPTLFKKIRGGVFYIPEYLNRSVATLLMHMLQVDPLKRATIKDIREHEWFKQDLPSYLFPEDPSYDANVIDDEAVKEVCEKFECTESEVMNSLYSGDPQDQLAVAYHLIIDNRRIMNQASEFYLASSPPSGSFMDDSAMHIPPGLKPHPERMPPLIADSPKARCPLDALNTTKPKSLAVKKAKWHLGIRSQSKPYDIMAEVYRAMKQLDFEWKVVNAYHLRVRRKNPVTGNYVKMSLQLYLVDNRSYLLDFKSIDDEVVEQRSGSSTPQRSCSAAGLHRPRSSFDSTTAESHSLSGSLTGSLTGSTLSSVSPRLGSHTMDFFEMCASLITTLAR
Sequence of UniProt Q9UM07 (whole entry, looked up): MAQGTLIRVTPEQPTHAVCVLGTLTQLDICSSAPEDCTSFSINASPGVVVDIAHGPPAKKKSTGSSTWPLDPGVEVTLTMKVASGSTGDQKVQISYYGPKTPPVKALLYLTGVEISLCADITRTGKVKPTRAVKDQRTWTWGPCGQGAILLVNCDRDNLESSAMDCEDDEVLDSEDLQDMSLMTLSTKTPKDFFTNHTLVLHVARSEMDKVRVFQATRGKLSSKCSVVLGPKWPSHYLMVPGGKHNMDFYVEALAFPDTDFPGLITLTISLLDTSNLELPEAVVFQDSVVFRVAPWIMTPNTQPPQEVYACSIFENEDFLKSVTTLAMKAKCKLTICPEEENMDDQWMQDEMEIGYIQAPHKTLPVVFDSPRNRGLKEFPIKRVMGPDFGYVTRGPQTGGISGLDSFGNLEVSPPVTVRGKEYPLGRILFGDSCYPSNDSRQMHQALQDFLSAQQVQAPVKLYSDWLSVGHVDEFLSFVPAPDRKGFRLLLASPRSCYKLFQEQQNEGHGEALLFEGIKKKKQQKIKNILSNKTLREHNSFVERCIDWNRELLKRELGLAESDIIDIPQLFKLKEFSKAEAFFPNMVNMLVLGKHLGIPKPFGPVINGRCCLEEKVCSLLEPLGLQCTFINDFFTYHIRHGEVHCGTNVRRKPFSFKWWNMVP
Sequence of UniProt P10636 (whole entry, looked up): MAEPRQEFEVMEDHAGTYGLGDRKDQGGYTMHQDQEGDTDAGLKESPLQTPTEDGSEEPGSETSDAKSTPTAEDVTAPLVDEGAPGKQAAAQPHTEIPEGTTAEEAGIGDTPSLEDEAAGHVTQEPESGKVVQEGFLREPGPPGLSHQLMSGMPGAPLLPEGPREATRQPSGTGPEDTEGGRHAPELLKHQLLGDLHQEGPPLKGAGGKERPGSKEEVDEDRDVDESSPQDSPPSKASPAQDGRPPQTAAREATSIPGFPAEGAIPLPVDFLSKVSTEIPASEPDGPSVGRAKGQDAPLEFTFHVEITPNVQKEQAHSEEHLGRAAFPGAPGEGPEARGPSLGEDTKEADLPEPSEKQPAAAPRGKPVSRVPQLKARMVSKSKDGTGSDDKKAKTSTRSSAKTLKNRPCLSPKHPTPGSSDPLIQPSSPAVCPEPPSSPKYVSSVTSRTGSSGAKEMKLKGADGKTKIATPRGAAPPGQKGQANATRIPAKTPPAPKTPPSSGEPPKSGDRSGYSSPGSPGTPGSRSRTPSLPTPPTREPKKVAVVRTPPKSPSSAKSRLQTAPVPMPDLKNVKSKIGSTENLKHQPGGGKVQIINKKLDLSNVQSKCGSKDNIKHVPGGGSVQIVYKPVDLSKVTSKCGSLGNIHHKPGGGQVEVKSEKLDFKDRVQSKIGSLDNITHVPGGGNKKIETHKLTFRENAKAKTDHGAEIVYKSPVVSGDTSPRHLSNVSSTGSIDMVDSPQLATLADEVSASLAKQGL
Sequence of UniProt Q8NEB9 (whole entry, looked up): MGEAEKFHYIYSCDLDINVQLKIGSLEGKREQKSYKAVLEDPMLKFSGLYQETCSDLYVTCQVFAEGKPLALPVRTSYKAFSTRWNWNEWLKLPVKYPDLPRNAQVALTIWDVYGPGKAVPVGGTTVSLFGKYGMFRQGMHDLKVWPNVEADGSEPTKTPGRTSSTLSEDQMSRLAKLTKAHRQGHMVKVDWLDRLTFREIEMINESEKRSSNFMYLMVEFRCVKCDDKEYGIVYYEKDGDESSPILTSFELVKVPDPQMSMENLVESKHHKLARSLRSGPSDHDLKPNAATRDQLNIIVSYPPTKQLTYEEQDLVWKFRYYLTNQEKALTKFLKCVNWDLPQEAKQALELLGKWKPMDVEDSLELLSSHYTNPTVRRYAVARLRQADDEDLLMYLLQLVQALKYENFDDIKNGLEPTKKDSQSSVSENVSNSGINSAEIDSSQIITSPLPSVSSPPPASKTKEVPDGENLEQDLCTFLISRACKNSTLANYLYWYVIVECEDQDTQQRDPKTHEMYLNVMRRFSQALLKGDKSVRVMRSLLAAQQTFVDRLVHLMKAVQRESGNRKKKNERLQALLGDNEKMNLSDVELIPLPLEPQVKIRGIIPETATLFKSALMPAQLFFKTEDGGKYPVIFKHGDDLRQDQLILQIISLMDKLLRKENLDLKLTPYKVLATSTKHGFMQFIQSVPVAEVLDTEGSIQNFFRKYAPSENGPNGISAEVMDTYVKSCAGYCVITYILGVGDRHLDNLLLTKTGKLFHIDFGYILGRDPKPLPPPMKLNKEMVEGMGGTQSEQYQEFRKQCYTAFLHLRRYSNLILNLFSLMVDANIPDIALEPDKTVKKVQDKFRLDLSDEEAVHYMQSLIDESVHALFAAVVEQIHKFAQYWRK
Sequence of UniProt Q9BUZ4 (whole entry, looked up): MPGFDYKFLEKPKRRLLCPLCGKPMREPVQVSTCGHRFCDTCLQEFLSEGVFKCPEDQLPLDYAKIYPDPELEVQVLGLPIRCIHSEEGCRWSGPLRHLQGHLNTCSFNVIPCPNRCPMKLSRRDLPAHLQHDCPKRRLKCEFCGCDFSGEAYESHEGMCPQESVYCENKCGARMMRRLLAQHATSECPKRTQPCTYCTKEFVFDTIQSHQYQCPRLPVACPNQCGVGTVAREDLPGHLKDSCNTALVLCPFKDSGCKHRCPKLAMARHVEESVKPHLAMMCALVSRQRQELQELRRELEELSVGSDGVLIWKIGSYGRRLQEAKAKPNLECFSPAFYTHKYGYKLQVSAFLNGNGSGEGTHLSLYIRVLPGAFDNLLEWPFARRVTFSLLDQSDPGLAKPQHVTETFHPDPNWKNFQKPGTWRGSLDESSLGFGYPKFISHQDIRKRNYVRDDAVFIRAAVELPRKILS
Sequence of UniProt A0A109QYD3 (whole entry, unmodified, looked up): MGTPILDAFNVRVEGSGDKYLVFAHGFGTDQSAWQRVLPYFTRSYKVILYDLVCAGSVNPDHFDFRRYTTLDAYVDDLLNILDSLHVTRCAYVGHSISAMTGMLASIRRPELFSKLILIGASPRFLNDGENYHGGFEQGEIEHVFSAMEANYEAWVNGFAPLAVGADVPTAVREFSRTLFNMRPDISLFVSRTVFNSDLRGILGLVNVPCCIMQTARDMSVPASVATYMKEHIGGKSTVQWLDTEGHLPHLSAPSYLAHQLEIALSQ
Sequence of UniProt P10145 (whole entry, looked up): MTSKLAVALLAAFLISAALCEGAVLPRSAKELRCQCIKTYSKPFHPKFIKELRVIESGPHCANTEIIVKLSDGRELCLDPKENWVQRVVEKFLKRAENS

The Kd of `CC1=C[C@H](O/C=C2/C(=O)O[C@@H]3c4ccccc4C[C@H]23)OC1=O` (single isomer, unassigned) is reported as 15.7 µM (RMS3 (Lathyrus oleraceus, UniProt A0A109QYD3, S96C); binding, fluorescence).
`COc1cccc(OC)c1OCCCn1cc(CCCNc2nc3c(c(=O)[nH]2)[n+](C)cn3C2OC(COP(=O)(O)OP(=O)([O-])OP(=O)(O)OCC3OC(n4cnc5c(=O)[nH]c(N)nc54)C(O)C3O)C(O)C2O)nn1` (stereo not drawn) gave a Kd of 8.46 µM (Eif4e; differential scanning fluorimetry).
The Kd of `Cc1cn(C2CC(O)C(COP(=O)(O)OP(=O)(O)C(F)(Cl)P(=O)(O)O)O2)c(=O)[nH]c1=O` (mixture of isomers) is reported as 3.1 ± 0.5 µM (POLB I260M; substrate, single turnover kinetics; 37 °C).
For `NS(=O)(=O)c1c(F)c(F)c(S(=O)(=O)CCc2ccccc2)c(NCc2ccccc2)c1F`, the Kd was 0.033 µM (CA2 (Homo sapiens, UniProt P00918, A65S/F130A/I91T/L203N/N67K/V134S); pH 7).
`CO[C@@H]1[C@H](O)[C@@H](COP(=O)(O)OP(=O)([O-])C(Cl)(Cl)P(=O)(O)OP(=O)(O)OC[C@H]2O[C@@H](n3cnc4c(=O)[nH]c(N)nc43)[C@H](O)[C@@H]2O)O[C@H]1n1c[n+](C)c2c(O)nc(N)nc21` gave a Kd of 0.0121 µM (Eukaryotic translation initiation factor 4E, residues 28-217 (Eif4e, Mus musculus, UniProt P63073); binding, fluorescence quenching titration; pH 7.2, 20 °C).
With `Cc1cc2c(Nc3ccc(O)cc3)ncnc2s1` the Kd was 140 µM (TRAF4, TRAF-C domain (Homo sapiens, UniProt Q9BUZ4); binding; pH 7.4, 25 °C, 5% DMSO-d6).
For `Nc1nc2c(ncn2[C@H]2C[C@H](O)[C@@H](COP(=O)(O)OP(=O)(O)[C@@H](F)P(=O)(O)O)O2)c(=O)[nH]1`, the Kd was 590 ± 110 µM (DNA polymerase beta (POLB, Homo sapiens, UniProt P06746); substrate, quench-flow kinetics; pH 8.0, 37 °C, misincorporation opposite T in gapped DNA).
For `CC[C@H](C)[C@@H]1NC(=O)[C@H](C)NC(=O)[C@H](C)NC(=O)[C@H]([C@@H](C)O)NC(=O)[C@H](C)NC(=O)[C@@H]2CSSC[C@@H]3NC(=O)[C@H](C(C)C)NC(=O)[C@H](CCCCN)NC(=O)[C@H](CO)NC(=O)[C@H](CCCCN)NC(=O)[C@@H]4CSSC[C@H](NC(=O)[C@H](CO)NC(=O)[C@H](CCC(=O)O)NC(=O)CNC(=O)[C@H](CSSC[C@H](NC(=O)CNC1=O)C(=O)N[C@@H](CO)C(=O)N4)NC(=O)[C@@H]1CCCN1C(=O)[C@H](Cc1ccccc1)NC(=O)CNC(=O)[C@H](CC(N)=O)NC(=O)[C@H](CCCCN)NC(=O)[C@H](Cc1ccc(O)cc1)NC3=O)C(=O)N[C@@H](C(C)C)C(=O)N[C@@H](Cc1ccc(O)cc1)C(=O)N[C@@H](CC(C)C)C(=O)N1CCC[C@H]1C(=O)N2`, the Kd was 19.4 ± 0.8 µM (POPC/POPE lipid membrane; membrane binding, surface plasmon resonance; POPC/POPE 80:20 vesicles; pH 7.4).
For `CNCCNC(=O)CN1C(=O)Cc2c([nH]c3ccc(Br)cc23)-c2ccc(Cl)cc21`, the Kd was 0.417 µM (Trypanothione synthetase (Leishmania infantum, UniProt A4I2Z3); isothermal titration calorimetry; together with: ADP 2 mM and glutathione 2 mM).
With `CC(C)CCCC(C)C1CCC2C3CC=C4CC(OC(=O)CCC(=O)NCCCCCCNC(=O)O[C@H]5[C@@H](O)[C@H](n6cnc7c(=O)[nH]c(N)nc76)O[C@@H]5COP(=O)(O)OP(=O)([O-])OP(=O)(O)OC[C@H]5O[C@@H](n6c[n+](C)c7c(O)nc(N)nc76)[C@H](O)[C@@H]5O)CCC4(C)C3CCC12C` (stereo partly drawn) the Kd was 0.043 µM (Eif4e; cap analogue binding, pyrene fluorescence competition; 20 °C).
With `Cc1ccc(Oc2nc3cc(-c4ccc5c(ccn5C)c4)c(Cl)cc3[nH]2)cc1C(=O)O` the Kd was 0.085 µM (PRKAA2/PRKAB1, phosphorylated; with gamma1 (Homo sapiens, UniProt P54646+Q9Y478); binding, circular dichroism titration; α2β1γ1 complex).
For `C[C@]12CCC(=O)C=C1CCC1C2C(=O)C[C@@]2(C)C1CC[C@]2(O)C(=O)CO` (stereo partly drawn), the Kd was 0.064 ± 0.004 µM (mouse anti-cortisol Fab 17; native MS titration; 200 mM ammonium acetate; 1.5% DMSO, 0.5% methanol, together with: Fab 100 nM).
For `CC[C@H](C)[C@@H]1NC(=O)[C@H](C)NC(=O)[C@H](C)NC(=O)[C@H]([C@@H](C)O)NC(=O)[C@H](Cc2ccccc2)NC(=O)[C@@H]2CSSC[C@@H]3NC(=O)[C@H](C(C)C)NC(=O)[C@H](CCCCN)NC(=O)[C@H](CO)NC(=O)[C@H](CCCCN)NC(=O)[C@@H]4CSSC[C@H](NC(=O)[C@H](C)NC(=O)[C@H](CCC(=O)O)NC(=O)CNC(=O)[C@H](CSSC[C@H](NC(=O)CNC1=O)C(=O)N[C@@H](CO)C(=O)N4)NC(=O)[C@@H]1CCCN1C(=O)[C@H](Cc1ccccc1)NC(=O)CNC(=O)[C@H](CC(N)=O)NC(=O)[C@H](CCCCN)NC(=O)[C@H](Cc1ccc(O)cc1)NC3=O)C(=O)N[C@@H](C(C)C)C(=O)N[C@@H](Cc1ccc(O)cc1)C(=O)N[C@@H](CC(C)C)C(=O)N1CCC[C@H]1C(=O)N2`, the Kd was 8.73 ± 0.5 µM (POPC/POPE lipid membrane; membrane binding, surface plasmon resonance; POPC/POPE 80:20 vesicles; pH 7.4).
`CC1=C([C@H](C)N[C@H](C)[C@@H]2COC(=O)[C@H]2C)COC1=O` has a Kd of 118 µM (MAL12 (Saccharomyces cerevisiae S288c, UniProt P53341); binding, surface plasmon resonance).
For `Cc1c(C)n(-c2ccc(Br)cc2)c2ncnc(N3CCC(C(N)C(=O)N4CCCC4)CC3)c12` (stereo not drawn), the Kd was 2.82 µM (PADI4 (Homo sapiens, UniProt Q9UM07); surface plasmon resonance).
For `CC(=O)N[C@@H]1[C@@H](O[C@@H]2O[C@H](C(=O)O)[C@@H](O[C@@H]3O[C@H](COS(=O)(=O)O)[C@@H](OS(=O)(=O)O)[C@H](O[C@@H]4O[C@H](C(=O)O)[C@@H](O[C@@H]5O[C@H](COS(=O)(=O)O)[C@@H](OS(=O)(=O)O)[C@H](O[C@@H]6O[C@H](C(=O)O)[C@@H](OS(=O)(=O)O)[C@H](OS(=O)(=O)O)[C@H]6OS(=O)(=O)O)[C@H]5NC(C)=O)[C@H](OS(=O)(=O)O)[C@H]4OS(=O)(=O)O)[C@H]3NC(C)=O)[C@H](OS(=O)(=O)O)[C@H]2OS(=O)(=O)O)[C@H](OS(=O)(=O)O)[C@@H](COS(=O)(=O)O)O[C@H]1N=[N+]=[N-]`, the Kd was 1.51 µM (Interleukin-8 (CXCL8, Homo sapiens, UniProt P10145); ligand displacement, FP).
With `Nc1nc2c(ncn2[C@H]2C[C@H](O)[C@@H](COP(=O)(O)OP(=O)(O)C(Br)(Br)P(=O)(O)O)O2)c(=O)[nH]1` the Kd was 177 ± 87 µM (POLB I260M; nucleotide binding, substrate, single turnover kinetics; 37 °C, dG misincorporation opposite A).
`Cc1cc(NCC(=O)C(C)C)c2nc(N3CCOC[C@H]3C)cc(=O)n2c1` has a Kd of 0.736 µM (PIK3C3 (Homo sapiens, UniProt Q8NEB9); binding, SPR).
`OC(Cc1cc(-c2ccc(C(O)C(F)(F)F)s2)sc1-c1ccc(-c2sc(-c3ccc(C(O)C(F)(F)F)s3)cc2CC(O)C(F)(F)F)s1)C(F)(F)F` (stereo not drawn) gave a Kd of 0.96 ± 0.2 µM (Microtubule-associated protein tau, 0N4R isoform, aggregated (MAPT, Homo sapiens, UniProt P10636); binding, fluorescence; 10% sucrose tau fraction).
`Cc1cn(C2CC(O)C(COP(=O)(O)OP(=O)(O)C(F)P(=O)(O)O)O2)c(=O)[nH]c1=O` (mixture of isomers) has a Kd of 86.4 ± 46.5 µM (POLB I260M; substrate, single turnover kinetics; 37 °C).
For `OC[C@H]1Oc2cc(Cc3ccccc3)cc3c2[C@@H](OC3)[C@H]1O`, the Kd was 240 µM (Galectin-8 (LGALS8, Homo sapiens, UniProt O00214); cell-free assay, FP).
